Results of several laboratories.
± gives the spread as reported.
UniProt Q92847, sequence (whole entry, looked up): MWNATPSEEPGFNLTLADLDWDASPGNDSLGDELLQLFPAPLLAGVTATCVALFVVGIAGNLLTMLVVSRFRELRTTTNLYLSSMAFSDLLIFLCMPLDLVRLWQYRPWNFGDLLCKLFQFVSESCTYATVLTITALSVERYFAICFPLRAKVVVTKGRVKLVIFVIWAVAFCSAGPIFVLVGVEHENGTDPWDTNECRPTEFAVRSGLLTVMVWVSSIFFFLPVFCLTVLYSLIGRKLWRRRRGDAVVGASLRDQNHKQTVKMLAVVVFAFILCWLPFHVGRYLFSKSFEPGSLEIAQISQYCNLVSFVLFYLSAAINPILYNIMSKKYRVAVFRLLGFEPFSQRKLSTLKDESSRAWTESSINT

`O=C(Nc1cccnn1)N1CCC(=Cc2cccc(Oc3ccc(C(F)(F)F)cn3)c2)CC1`: compound concentration “not detected” (COS cells expressing human FAAH; cell lysate; 100 nM, 0 h, quantification limit 5 nM).
With `CC(c1ccccc1)(c1ccc(O)cc1)c1ccc(O)cc1` the viable cells was 48.2 ± 5.08% (HepG2 spheroids, dissociated; annexin V-FITC/PI flow cytometry; 10 µM, 96 h).
`O=C(Nc1cnccc1Cl)N1CCN(Cc2ccc3c(c2)OC(F)(F)O3)CC1`: compound concentration “not detected” (COS cells expressing human FAAH; cell lysate; 100 nM, 3 h, quantification limit 5 nM).
The viability of `Cc1cccc(NC(=O)c2sc3nc(-c4ccccc4)cc(C(F)(F)F)c3c2N)n1` is reported as 20 ± 4% (MDA-MB-231; MTT; 100 µM, 72 h).
`COc1cc2c(Oc3ccc4[nH]c(C)cc4c3F)ccnc2cc1OCC1(N)CC1` — result for “intestinal obstruction incidence”: 9.1% (paediatric refractory sarcoma patients; 12 mg).
For `COc1cc(Nc2ncc(F)c(Nc3ccc4c(n3)NC(=O)C(C)(C)O4)n2)cc(OC)c1OC`, the IC50 was > 10 µM (GHSR (Homo sapiens, UniProt Q92847)).
With `CC(C)CC(=O)OC[C@H]1O[C@@](C#N)(c2ccc3c(N)ncnn23)[C@H](O)[C@@H]1O` the efflux ratio was 2.09 (Caco-2; 9 µM, 2 h, with: verapamil 100 µM).
For `Oc1ccc(C2(c3ccc(O)cc3)c3ccccc3-c3ccccc32)cc1`, the necrotic cells was 6.59 ± 1.66% (HepG2 spheroids; annexin V-FITC/PI flow cytometry; 10 µM, 24 h).
`CN(C(=O)n1cnc(-c2ccc[n+]([O-])c2)c1)C1CCCCC1` gave a concentration of 101 ± 1.2 nM (COS cells expressing human FAAH; COS cell culture supernatant; 100 nM, 3 h).
`CO[C@H]1C[C@@H]2CC[C@@H](C)[C@@](O)(O2)C(=O)C(=O)N2CCCC[C@H]2C(=O)O[C@H]([C@H](C)C[C@@H]2CC[C@@H](OC(=O)NCCOCCOCCOCCOCCOCCOCCOCCOCCC(=O)N3CCc4cc(Cn5nc(-c6ccc7oc(N)nc7c6)c6c(N)ncnc65)ccc4C3)[C@H](OC)C2)C[C@@H](O)[C@H](C)/C=C(\C)[C@@H](O)[C@@H](OC)C(=O)[C@H](C)C[C@H](C)/C=C/C=C/C=C/1C`: “incidence of Vomiting TEAE” 0% (patients with advanced solid tumours; intravenous, 1.6 mg/3 mg weekly, grade ≥3).
`COCCOCCOCCNC(=O)CSc1nc(-c2ccccc2)cc(C(F)(F)F)c1C#N` has a viability of 58 ± 6% (MDA-MB-231; MTT; 100 µM, 72 h).
`O=c1ccc2ccccc2o1`: “oxygen consumption rate, chance of response” 60.6% (NHEK; Seahorse; keratinocyte growth medium; concentration not given, 1 h).
`CC[C@H](C)[C@@H]1NC(=O)[C@@H]2CCCN2C(=O)[C@H](CC(C)C)NC(=O)[C@H](CC(C)C)NC(=O)CNC(=O)[C@@H](NC(=O)[C@@H](NC(=O)[C@H](CC(=O)O)NC(=O)CNC(=O)[C@@H](NC(=O)[C@H](C)NC(=O)CNC(=O)[C@H](CCCCN)NC(=O)[C@H](CC(C)C)NC(=O)[C@H](CC(C)C)NC(=O)[C@H](CCCCN)NC(=O)CNC(=O)[C@@H](NC(=O)[C@@H](N)CC(C)C)C(C)C)C(C)C)C(C)C)CSSC[C@@H](C(=O)O)NC1=O` — result for “log2 fold change”: 0.635 (RNA-seq, measured: Snhg11 mRNA; mouse traumatic brain injury, frontal cortex and hippocampus; dose not given; relative to: TBI plus compound vs TBI).
For `COCCOCCOCCNC(=O)c1sc2nc(C)cc(C(F)(F)F)c2c1N`, the viability was 67 ± 9% (MDA-MB-231; MTT; 100 µM, 72 h).
Under “subjects with drug-related hyperhidrosis”, `C[C@]1(CO)Cc2ncn(-c3ccc(C#N)c(Cl)c3)c2C(=O)O1` is recorded as 0% (human; 10 mg multiple doses, fasted).
